Measurements gathered from unrelated publications.
Compare with care: the assays were run in different laboratories. Numbers after ± are the reported error.

Compound	target or system	test	test system	conditions	how to read	measurement	value
CC(C)C[C@H](NC(=O)CNC(=O)[C@H](CCC(=O)O)NC(=O)[C@H](CCCCN)NC(=O)[C@H](CC(C)C)NC(=O)[C@H](C)NC(=O)[C@H](C)NC(=O)CNC(=O)[C@H](C)NC(=O)[C@H](CCCCN)NC(=O)[C@H](CCC(=O)O)NC(=O)[C@H](CC(C)C)NC(=O)[C@H](CCCCN)NC(=O)[C@H](CCCCN)NC(=O)[C@H](CC(C)C)NC(=O)[C@H](CC(C)C)NC(=O)[C@H](CCCCN)NC(=O)[C@H](Cc1c[nH]c2ccccc12)NC(=O)[C@@H](N)CCCCN)C(=O)N[C@@H](CC(C)C)C(=O)N[C@@H](CCCCN)C(=O)N[C@@H](C)C(=O)NCC(=O)N1CCC[C@H]1C(=O)N[C@@H](C)C(=O)N[C@@H](CC(C)C)C(=O)N[C@@H](C)C(=O)N[C@@H](CC(C)C)C(=O)N[C@@H](CC(C)C)C(=O)NCC(=O)N[C@@H](C)C(=O)N[C@@H](C)C(=O)N[C@@H](C)C(=O)N[C@@H](C)C(=O)N[C@@H](CC(C)C)C(=O)N[C@@H](C)C(=O)N[C@@H](CCCCN)C(N)=O	–	–	POPC/POPG 1:1 vesicles	–	–	static quenching constant	140 M⁻¹
Cc1cc(O)c(I)c(C)c1C[C@H](N)C(=O)N[C@H](C)C(=O)N[C@@H](Cc1ccccc1)C(=O)N[C@@H](Cc1ccccc1)C(N)=O	–	analgesia, tail flick	C57BL/6 wild-type mouse	intrathecal	–	ED50	1.72 µg
CC[C@@](C)(NC)C(=O)NC(C)(C)C(=O)NC(C)(C)C(=O)NC(C)(C)C(=O)NCC(=O)NC(C)(C)C(=O)N1CCC[C@@H]1C(=O)N[C@@H](Cc1c[nH]c2ccccc12)C(=O)NC(C)(C)C(=O)N1C[C@H](O)C[C@@H]1C(=O)N[C@@H](C)C(=O)NC(C)(C)C(=O)NCCCC(=O)N[C@@H](CC(C)C)C(=O)N[C@](C)(CC)C(=O)NC(C)(C)C(=O)N[C@](C)(CC)C(=O)N[C@H](CO)Cc1ccccc1	–	5-carboxyfluorescein release	POPG liposomes	20 µg/mL, 30 min	relative to: Triton X-100 full leakage	dye leakage	~60%
Cc1cc(Nc2nc(C[C@@]3(C(=O)O)CCN(Cc4cccc(Cl)c4F)[C@H](C)C3)cc(C)c2F)[nH]n1	–	–	mouse, NCI-H446 xenograft	oral, 10 mg/kg once daily, monotherapy	–	tumour growth inhibition	78%
C[C@H](NC(=O)[C@H](CCC(N)=O)NC(=O)[C@H](C)NC(=O)[C@H](CCCCN)NC(=O)[C@H](CCC(N)=O)NC(=O)[C@H](C)NC(=O)[C@H](CCCCN)NC(=O)[C@H](CCC(N)=O)NC(=O)[C@H](C)NC(=O)[C@H](CCC(N)=O)NC(=O)[C@H](CCCCN)NC(=O)[C@H](C)NC(=O)[C@H](CCC(N)=O)NC(=O)[C@H](CCCCN)NC(=O)[C@H](C)NC(=O)[C@H](CCC(N)=O)NC(=O)[C@H](C)NC(=O)[C@H](CCCCN)NC(=O)[C@H](CCC(N)=O)NC(=O)[C@H](C)NC(=O)[C@H](CCCCN)NC(=O)[C@H](CO)NC(=O)[C@H](Cc1ccc(O)cc1)NC(=O)CNC(=O)CNC(=O)CN)C(=O)N[C@@H](CCCCN)C(=O)N[C@@H](CCC(N)=O)C(=O)N[C@@H](C)C(=O)N[C@@H](CCCCN)C(=O)N[C@@H](CCC(N)=O)C(=O)O	–	–	rVλ6Wil fibrils	1 h, room temperature, 0.05% Tween-20	relative to: 1 M NaCl over PBS	binding ratio	0.11
CCOc1cncc(-c2ccc(NC(=O)C3(c4ccnc(NS(=O)(=O)C5CC5)n4)CCOCC3)nc2)n1	–	enzyme activity, inhibitor, RapidFire mass spectrometry	rat	–	relative to: CTPS1 over CTPS2	selectivity ratio	49
CC[C@H](C)[C@@H]1NC(=O)[C@@H](NC(=O)CNC(=O)c2ccc(F)cc2)CSSC[C@@H]2NC(=O)[C@H](C)NC(=O)CNC(=O)[C@@H]3CCCN3C(=O)[C@@H]3CSSC[C@@H](C(=O)NCC(=O)O)NC(=O)[C@H](Cc4ccc(O)cc4)NC(=O)CNC(=O)[C@H](CC(N)=O)NC(=O)CNC(=O)[C@H](CCCNC(=N)N)NC(=O)[C@H](CSSC[C@H](NC(=O)[C@H](CCCNC(=N)N)NC(=O)[C@H](Cc4ccccc4)NC(=O)[C@H](CC(C)C)NC(=O)[C@H](CC(C)C)NC(=O)[C@H]([C@@H](C)O)NC(=O)CNC(=O)[C@H](CC(C)C)NC(=O)[C@H](CC(=O)O)NC(=O)[C@H]([C@@H](C)O)NC(=O)[C@H](CCCNC(=N)N)NC(=O)[C@H](CCSC)NC(=O)[C@H](CC(N)=O)NC(=O)[C@H](CC(C)C)NC1=O)C(=O)N[C@@H](CCCNC(=N)N)C(=O)N[C@@H](CCCNC(=N)N)C(=O)N[C@@H](CC(=O)O)C(=O)N[C@@H](CO)C(=O)N[C@@H](CC(=O)O)C(=O)N3)NC(=O)[C@H]([C@@H](C)CC)NC2=O [fluorine-18 labelled]	–	PET	nude mouse, BXPC-3 xenograft	intravenous, 0.5 h	–	tumour uptake	2.3 ± 0.6 %ID/g
COC(=O)C1=CO[C@@H](OC(C)=O)[C@@H]2C(Cn3cc(CN4C(=O)c5ccccc5C4=O)nn3)=CC[C@H]12	SK-N-SH	neuroprotection, MTT	–	0.075 µM, 24 h, with: 250 µM H2O2	–	viability	53.5 ± 0.6%
CC[C@H](C)[C@H](NC(=O)[C@@H](NC(=O)[C@H](CC(=O)O)NC(C)=O)[C@@H](C)O)C(=O)N[C@@H](CCCNC(=N)N)C(=O)N[C@@H](CC(C)C)C(=O)N[C@@H](CC(C)C)C(=O)N[C@@H](Cc1ccccc1)C(=O)N[C@@H](CCC(N)=O)C(=O)N[C@@H](CC(C)C)C(=O)N[C@@H](CCSC)C(=O)N[C@@H](CCCNC(=N)N)C(=O)N1CCC[C@H]1C(=O)N1CCC[C@H]1C(=O)N[C@@H](CC(N)=O)C(=O)N[C@@H](CCSC)C(=O)N[C@H](C(=O)N1CCC[C@H]1C(=O)N[C@@H](C)C(=O)N[C@H](C(=O)N[C@@H](CC(N)=O)C(=O)N[C@@H](C)C(N)=O)C(C)C)[C@@H](C)O	–	item: HA-02 tetramer	antigen-experienced tetramer+ CD4 T cells, healthy adults, HLA-DRB1*0101	dose not given	–	α4β7− CCR9+ cells	6.67%
CCN(CCCCOc1ccc(CCC(=O)N2CCC(Cc3ccccc3)CC2)cc1OC)Cc1ccccc1	–	Morris water maze	APP/PS1 transgenic mouse	dose not given	relative to: untreated model	escape latency	decreased
CCCCCCCCCCCCCCCC(=O)N[C@@H](CCC(=O)NCCOCCOCCC(=O)NCCOCCOCCC(=O)NCCCC[C@H](NC(=O)[C@H](CC(=O)O)NC(=O)[C@H](CC(C)C)NC(=O)[C@H](Cc1ccc(O)cc1)NC(=O)[C@H](CCCCN)NC(=O)[C@H](CO)NC(=O)[C@H](Cc1ccc(O)cc1)NC(=O)[C@H](CC(=O)O)NC(=O)[C@H](CO)NC(=O)[C@@H](NC(=O)[C@H](Cc1ccccc1)NC(=O)[C@@H](NC(=O)CNC(=O)[C@H](CCC(N)=O)NC(=O)[C@@H](CO)NC(=O)[C@@H](N)Cc1c[nH]cn1)[C@@H](C)O)[C@@H](C)O)C(=O)N[C@@H](CCCNC(=N)N)C(=O)N[C@@H](CCCNC(=N)N)C(=O)N[C@@H](C)C(=O)N[C@@H](CCC(N)=O)C(=O)N[C@@H](CC(=O)O)C(=O)N[C@@H](Cc1ccccc1)C(=O)N[C@H](C(=O)N[C@@H](CCC(N)=O)C(=O)N[C@@H](Cc1c[nH]c2ccccc12)C(=O)N[C@@H](CC(C)C)C(=O)N[C@@H](CC(C)C)C(=O)N[C@@H](CC(N)=O)C(=O)N[C@H](C(=O)NCC(=O)NCC(=O)N1CCC[C@H]1C(=O)N[C@@H](CO)C(=O)N[C@@H](CO)C(=O)NCC(=O)N[C@@H](C)C(=O)N1CCC[C@H]1C(=O)N1CCC[C@H]1C(=O)N1CCC[C@H]1C(=O)N[C@@H](CO)C(N)=O)[C@@H](C)O)C(C)C)C(=O)O	–	–	C57BL/6J mouse CCl4 model, liver	dose not given	–	Col1α level	decreased
C=C(NC(=O)C(=C)NC(=O)c1csc(C2=NC3c4csc(n4)C4NC(=O)c5csc(n5)C(C(C)(O)C(C)O)NC(=O)C5CSC(=N5)C(=CC)NC(=O)C(C(C)O)NC(=O)c5csc(n5)C3(CC2)NC(=O)C(C)NC(=O)C(=C)NC(=O)C(Cc2ccccc2)NC(=O)C(C(C)CC)NC2C=Cc3c(C(C)O)cc(nc3C2O)C(=O)OC4C)n1)C(N)=O (stereo not shown)	–	protein synthesis, coupled transcription-translation, item: luciferase	Escherichia coli S30 extract	1 h, 37 °C	–	IC50	340 ± 20 nM
CC(=O)N[C@@H](Cc1c[nH]c2ccccc12)C(=O)NCC(=O)N[C@@H](C)C(=O)N[C@H]1CSCC(=O)Nc2ccc(cc2)N=Nc2ccc(c(S(=O)(=O)O)c2)-c2ccc(cc2S(=O)(=O)O)N=Nc2ccc(cc2)NC(=O)CSC[C@@H](C(=O)N[C@@H](CCCNC(=N)N)C(=O)N[C@@H](CCC(=O)O)C(=O)N[C@@H](C)C(=O)N[C@@H](CCC(N)=O)C(N)=O)NC(=O)[C@H](C)NC(=O)[C@H](C)NC(=O)[C@H](CCC(=O)O)NC(=O)[C@H](CCCNC(=N)N)NC(=O)[C@H](C)NC(=O)[C@H](C)NC(=O)[C@H](C)NC(=O)[C@H](CCC(=O)O)NC(=O)[C@H](CCCNC(=N)N)NC(=O)[C@H](C)NC(=O)[C@H](C)NC(=O)[C@H](C)NC(=O)[C@H](CCC(=O)O)NC(=O)[C@H](CCCNC(=N)N)NC(=O)[C@H](C)NC(=O)[C@H](C)NC(=O)[C@H](C)NC(=O)[C@H](CCC(=O)O)NC1=O	–	cis-to-trans reversion, UV-Vis absorbance	10 mM phosphate buffer	pH 7.0, 37 °C, with: 365 nm irradiation	–	thermal relaxation half-life	7.6 ± 0.2 min
NCCCC[C@H](NC(=O)CNC(=O)CNC(=O)[C@H](CCCCN)NC(=O)CNC(=O)CNC(=O)CNC(=O)[C@H](CCCCN)NC(=O)CNC(=O)CNC(=O)[C@H](CCCCN)NC(=O)CNC(=O)CNC(=O)CNC(=O)[C@H](CCCCN)NC(=O)CNC(=O)CNC(=O)[C@H](CCCCN)NC(=O)CNC(=O)CNC(=O)CNC(=O)[C@H](CCCCN)NC(=O)CNC(=O)CNC(=O)[C@H](CCCCN)NC(=O)[C@H](CO)NC(=O)[C@H](Cc1ccc(O)cc1)NC(=O)CNC(=O)CNC(=O)CN)C(=O)NCC(=O)O	–	–	Aβ(1-40) fibrils	1 h, room temperature	relative to: 1 M NaCl over PBS	binding ratio	0.07
COC(=O)C1=CO[C@@H](O)[C@@H]2C(Cn3cc(-c4ccc(OC)cc4)nn3)=CC[C@H]12	SK-N-SH	neuroprotection, MTT	–	0.15 µM, 24 h, with: 250 µM H2O2	–	viability	63 ± 2.6%
O=C(O)CCn1c(=O)oc2cc(Cl)c(Cl)cc21	–	–	rat, plasma	dose not given	–	total tryptophan level	70 µM
CC(C)C[C@H](NC(=O)[C@H](CC(N)=O)NC(=O)[C@@H](NC(=O)[C@H](Cc1ccccc1)NC(=O)[C@H](CC(C)C)NC(=O)[C@@H]1CCCN1C(=O)[C@H](C)NC(=O)[C@@H](N)Cc1ccccc1)[C@@H](C)O)C(=O)O	–	–	C57BL/6 mouse, HSV-1 infected, spleen	dose not given, 8 dpi	relative to: all HSV epitopes	share of HSV-specific CD8 response	5.24%
CC(C)[C@H](N)C(=O)N[C@@H](Cc1ccc(O)cc1)C(=O)N[C@@H](CCCCN)C(=O)N[C@H](C(=O)N[C@@H](CCCCN)C(=O)N[C@H](C(=O)N[C@@H](CCCCN)C(=O)N[C@H](C(=O)N[C@@H](CCCCN)C(=O)N[C@H](C(=O)N[C@@H](CCCCN)C(=O)N[C@H](C(=O)N[C@@H](CCCCN)C(=O)N[C@H](C(=O)N[C@@H](CCCCN)C(=O)N[C@H](C(=O)N[C@@H](CCCCN)C(=O)N[C@H](C(=O)O)[C@@H](C)O)C(C)C)[C@@H](C)O)C(C)C)[C@@H](C)O)C(C)C)[C@@H](C)O)C(C)C	–	–	rVλ6Wil fibrils	1 h, room temperature, 0.05% Tween-20	relative to: 1 M NaCl over PBS	binding ratio	0.35
CC[C@H](C)[C@H](NC(=O)[C@H](Cc1ccc(O)cc1)NC(=O)[C@@H]1CCCN1C(=O)[C@H](CCCNC(=N)N)NC(=O)[C@H](CCCNC(=N)N)NC(=O)CC[C@H](N)C(=O)NCCOCCOCCO[C@@H]1O[C@H](CO)[C@@H](O[C@@H]2O[C@H](CO)[C@H](O)[C@H](O)[C@H]2O)[C@H](O)[C@H]1O)C(=O)N[C@@H](CC(C)C)C(=O)O	–	6 Hz seizure test	CF-1 mouse	intracerebroventricular, 30 min, 32 mA corneal stimulation	–	ED50	< 0.001 nmol

A few entries again:
Compound	target or system	test	test system	conditions	how to read	measurement	value
Cc1cc(O)c(I)c(C)c1C[C@H](N)C(=O)N[C@H](C)C(=O)N[C@@H](Cc1ccccc1)C(=O)N[C@@H](Cc1ccccc1)C(N)=O	–	analgesia, tail flick	C57BL/6 wild-type mouse	intrathecal	–	ED50	1.72 µg
COC(=O)C1=CO[C@@H](OC(C)=O)[C@@H]2C(Cn3cc(CN4C(=O)c5ccccc5C4=O)nn3)=CC[C@H]12	SK-N-SH	neuroprotection, MTT	–	0.075 µM, 24 h, with: 250 µM H2O2	–	viability	53.5 ± 0.6%
